Measurements of several laboratories.
Organism: Enterococcus faecium

C[C@H]1COc2c(N3CCN(C)CC3)c(F)cc3c(=O)c(C(=O)N[C@@H](CCCNC(=N)N)C(=O)N[C@@H](Cc4ccc(-c5ccccc5)cc4)C(=O)N[C@@H](CCCNC(=N)N)C(=O)N[C@@H](Cc4ccc(-c5ccccc5)cc4)C(=O)N[C@@H](CCCNC(=N)N)C(N)=O)cn1c23  MIC (broth microdilution; ATCC 2316; 18 h, 37 °C): 5 µM
Cc1cccc(-c2nc(Nc3ccncn3)c3c(C)csc3n2)n1  MIC (microbial growth, broth dilution; X7501): 8 µM
CN(C)CCCNC(=O)[C@@H]1NC(=O)[C@@H]2Cc3ccc(cc3)Oc3cc4cc(c3O)-c3ccc5c(c[nH]c5c3)C[C@@H](NC(=O)C(NC(=O)CCCCCN)c3ccc(O)cc3)C(=O)N[C@H](c3ccc(O)cc3)C(=O)N[C@H]4C(=O)N[C@@H](C(=O)N2C)c2ccc(cc2)Oc2cc1ccc2O (stereo partly shown)  MIC (WCC 0534, VRE-A): 0.5 to 1 µg/mL
CC1=C[C@@]2(C)C(=C(C)[C@H]3[C@@H]4C[C@H](C)C[C@H](C)[C@H]4[C@H]4Oc5ccc(cc5)C[C@@H]5C(=O)NC(=O)[C@H]5C(=O)[C@@H]2[C@@H]43)[C@H]1C  MIC (microbial growth, broth dilution; ATCC700221; drug-resistant strain): 12.5 µM
CN1C(=O)[C@@H]2NC(=O)[C@@H]3NC(=O)[C@@H](c4ccc(O)cc4)NC(=O)[C@H](NC(=O)C(N)c4ccc(O)cc4)Cc4c[nH]c5cc(ccc45)-c4cc3cc(c4O)Oc3ccc(cc3)C[C@H]1C(=O)N[C@@H](C(=O)NCCC[N+](C)(C)C)c1ccc(O)c(c1)Oc1ccc2cc1 (stereo partly shown)  MIC (brain heart infusion medium): 4 µg/mL
Cc1cccc(-c2nc(Nc3ccncn3)c3sccc3n2)n1  MIC (microbial growth, broth dilution; X7501): 16 µM
c1ccc(CCNC2CCCc3c2[nH]c2ccc(C4CCCCC4)cc32)cc1 (stereo not shown)  MIC (broth microdilution; BM4147 vancomycin-resistant, cation-adjusted Mueller-Hinton broth): 2 µg/mL
CC(C)CCCCCCCCCCCCc1cc(O)cc(O)c1  MIC (microbial growth, broth dilution; drug-resistant strain): 32 µg/mL
CN1C(=O)[C@@H]2NC(=O)[C@@H]3NC(=O)[C@@H](c4ccc(O)cc4)NC(=O)[C@H](NC(=O)C(N)c4ccc(O)cc4)Cc4c[nH]c5cc(ccc45)-c4cc3cc(c4O)Oc3ccc(cc3)C[C@H]1C(=O)N[C@@H](C(=O)O)c1ccc(O)c(c1)Oc1ccc2cc1 (stereo partly shown)  MIC (WCC 0524, VRE-A): 4 to 8 µg/mL
CC1CCN(CCCN2/C(=C/c3cc(/C=C/c4c[nH]c5ccccc45)[n+](C)c4ccccc34)Sc3ccccc32)CC1  MIC (microbial growth, broth dilution; ATCC700221; drug-resistant strain): 8 µg/mL

A few entries again:
Cc1cccc(-c2nc(Nc3ccncn3)c3c(C)csc3n2)n1  MIC (microbial growth, broth dilution; X7501): 8 µM
